Results collected from several papers.
A part holds a random share of what one study measured.

Study 1
Target: Histone acetyltransferase KAT6A, winged helix 1, GST fusion (KAT6A, Homo sapiens, UniProt Q92794, residues 1-85)
Method: protein binding microarray
Form: double-stranded DNA, one strand shown
Sample: in vitro
Concentration: not given
Setting: 8-mer, flanks averaged, mean of 2 arrays, mostly near background
Relative to: not given
Reading: higher = stronger binding
Construct (chain): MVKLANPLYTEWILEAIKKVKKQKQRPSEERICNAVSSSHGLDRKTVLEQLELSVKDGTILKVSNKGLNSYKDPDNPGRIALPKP
Strand | E-score
CGGTAAAG | 0.281
AGAATAGC | 0.0852
ACTTACAT | -0.178
ATCTTTCA | -0.251
CGATCGCA | 0.0483
CATTTAAA | -0.124
GCACCAGA | -0.142
AAGAGTAT | -0.179
AGGTGAAC | -0.116
ATCTTCAT | -0.158
GTAGAAAA | -0.213
AACGCTGG | 0.0993
AGGTCCCC | 0.104
TATCTTAA | -0.175
AAAGGCTT | -0.0365
CTGTACTC | -0.108
TCAGTTAA | -0.148
CAAAAGCC | 0.0663
AATAAGAG | -0.112
ATAGCCCG | 0.193
AGCTGGGG | -0.0903
CCAGCAGC | -0.171
TGAATTAA | -0.0988
TGACGTCA | 0.122
AAACACGC | 0.256

Study 2
Target: Prothrombin, mature alpha-thrombin (F2, Homo sapiens, UniProt P00734)
Method: aptamer microarray, sandwich
Form: DNA with 2'F-ANA
Sample: in vitro
Concentration: 200 nM
Setting: whole 15-mer aptamer, many near background
Added: Cy3 exosite-II aptamer, 400 nM
Reading: higher = stronger binding
Strand: GGTTGGTGTGGTTGG
Modification | mean fluorescence intensity
2'F-ANA at 2 5 7 9 10 12 15 | 49.6 a.u.
2'F-ANA at 4 5 6 8 9 11 12 14 | 44.8 a.u.
2'F-ANA at 1 4 6 7 9 10 11 14 | 53.2 a.u.
2'F-ANA at 2 5 6 7 8 11 13 14 15 | 70.5 a.u.
2'F-ANA at 2 4 5 8 9 12 | 163 a.u.
2'F-ANA at 3 5 6 7 8 12 | 263 a.u.
2'F-ANA at 2 3 4 6 7 8 10 11 12 13 14 | 176 a.u.
2'F-ANA at 1 4 6 8 10 11 13 14 | 60.4 a.u.
2'F-ANA at 4 6 7 8 11 12 | 459 a.u.
2'F-ANA at 1 6 9 10 11 15 | 81.3 a.u.
2'F-ANA at 1 2 3 6 9 10 12 14 | 53.7 a.u.
2'F-ANA at 1 5 13 | 48.6 a.u.
2'F-ANA at 3 4 5 8 13 | 71.2 a.u.
2'F-ANA at 1 2 3 5 6 8 9 10 11 12 13 14 15 | 72.8 a.u.
2'F-ANA at 1 2 4 5 6 7 8 9 12 14 15 | 52.3 a.u.
2'F-ANA at 1 3 4 8 11 13 14 | 108 a.u.

Study 3
Target: RNA binding protein fox-1 homolog 2, RRM domain, GST-SBP tag (RBFOX2, Homo sapiens, UniProt O43251-10, residues 100-194)
Method: RNA Bind-n-Seq
Form: RNA
Sample: in vitro
Concentration: 365 nM
Setting: natural RNA segment, single round, ends assumed
Relative to: no-protein control
Reading: higher = stronger binding
Strand | RBNS enrichment (R)
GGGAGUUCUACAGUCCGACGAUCAAAGUAGCCAAGAGCCUUUUGUUUUGUUUUUAUUUUGAUAAAUUAGUGGAGAAAUGGCAUUUUAAGAGGAGUCUCUUCUCAACUUACCUGAGAGUCGAAUUCUUCUCUUCUGGAAUUCUCGGGUGCCAA | 0.442
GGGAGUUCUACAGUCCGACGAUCAAUGUAGUACCUCAUAGUUAAAACUUUCUUCAUUCACAGCCUUUCCCUUUCACAGUAAAACAUGCUUAGCUUUCUGUGUCUUUCUUUUAGUCAUGAUAAAAAUGAAGCUGUGGAAUUCUCGGGUGCCAA | 0.892
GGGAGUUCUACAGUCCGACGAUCCUGAGGCCUGUGGAAAUAAACCUUUAUGUACUUAAAGUUAUACAGAAAAUAGAAUAAAGUUAAUACCAAACUUGCUUAGUUGUUUACCUGUGAUAUUGGCUGUACAGAAAUGGAAUUCUCGGGUGCCAA | 0.375
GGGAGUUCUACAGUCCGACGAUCCUGAGGAUAUGAACUACACUGCUUGGUCACACGCUGGGAUCAGAAUCUUAAGCAGUUAUUCUUGCCAGGGUUUUGUUUUGUUUUGCAUUUUGCUCUUCAUUUCCGCAUGUUGGAAUUCUCGGGUGCCAA | 1.99
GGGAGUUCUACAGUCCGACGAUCGCCUCAGUUAUGAAAUGACCAAGAAAAGUAUCUCAUAAAUAUUGUAUAUUACGUGAAAUGUGAAGUUAAAACUGAAGCUAAGAGUGUUUGUGGUUGUAAUUGUUUUUUUUUGGAAUUCUCGGGUGCCAA | 0.859
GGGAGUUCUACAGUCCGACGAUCAAUGUCCUUGGAAACAUAAAUGCCUGCCAAUAACAUGGAAUAUUGAAUUCGGGCAAUGUGAAUUGAUUAAUUAGAAAAGGGUCAAAAGAAAUACAAUGGAUGUGGAAACUUGGAAUUCUCGGGUGCCAA | 1.33
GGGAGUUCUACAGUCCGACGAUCCUUGAGAAUCUCCAAGAGAAAAAUAUUUGGGGAAGGAGGGAGGAAAUAUGUCCCUUGCACACCACCCCUGAAGCACAUGGCAGUAGGAAACAGCAUAGGAUUGUAUGUGGUGGAAUUCUCGGGUGCCAA | 1.16
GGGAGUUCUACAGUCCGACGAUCAAUAAACCUGCAGUUUAACAGAAUUUUGUAUUAAAUGGGGGAGUGUCAAUUUGCAUCAUUUGCAUAUUGAUUUCAAGUCUCCUAAUUUGGAAUGGGUAAAGUACAAAUGUUGGAAUUCUCGGGUGCCAA | 1.29
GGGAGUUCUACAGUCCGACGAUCAGCUGUCACCUUACUCCCAUCCCAGGAGGCCGUAAGGCCUCCCACCUCUCCCCUGUGACUGCAGCUGCUGAGCCAUAAAGUUGGACCAUAUGACACAAGGCCAAUGGGGAUGGAAUUCUCGGGUGCCAA | 0.434

Study 4
Target: Interferon regulatory factor 3, full length, phosphomimetic (IRF3, Homo sapiens, UniProt Q14653, residues 1-427, S386D/S396D/S398D/S402D/T404D/S405D)
UniProt Q14653, sequence (whole entry, unmodified, looked up): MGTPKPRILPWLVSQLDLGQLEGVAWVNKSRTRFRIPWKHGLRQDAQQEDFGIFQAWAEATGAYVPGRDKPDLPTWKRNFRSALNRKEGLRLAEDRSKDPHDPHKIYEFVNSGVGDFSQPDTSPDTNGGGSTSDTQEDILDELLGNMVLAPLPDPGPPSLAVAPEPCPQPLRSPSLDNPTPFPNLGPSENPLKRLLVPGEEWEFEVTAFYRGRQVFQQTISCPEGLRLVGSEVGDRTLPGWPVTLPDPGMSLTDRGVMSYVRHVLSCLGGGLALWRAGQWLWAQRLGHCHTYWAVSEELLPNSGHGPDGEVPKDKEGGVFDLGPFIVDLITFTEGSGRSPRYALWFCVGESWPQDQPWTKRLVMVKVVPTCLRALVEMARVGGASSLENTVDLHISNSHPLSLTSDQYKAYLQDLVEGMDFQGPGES
Method: protein-binding microarray
Form: double-stranded DNA, one strand shown
Sample: in vitro
Concentration: 2540 nM top
Setting: 60-bp whole probe
Added: salmon DNA 0.4 mg/ml
Relative to: random background probes
Reading: higher = stronger binding
Constant ends, left off below: GCCTAGCAC … GTCTTGATTCGCTTGACGCTGCTG
Strand | fitted relative affinity [z-score]
GACGATTCCAGTTTCGATACGTGCTAG | 4.59
CCTAGGGGCGGGGCCAAATGGTGCTAG | 0.106
GACGGACTGGCTATCGGGACGTGCTAG | -0.575
GACGATACCAGTCTCGAGACGTGCTAG | 0.82
GACGGTATCGCTCTCGGGACGTGCTAG | 2.93
GACGGTATCGCGACTGGGGACGTGCTA | 0.0305
GACGGTTTCCTTTCGCTGACGTGCTAG | 8.51
TTAGGTCTCGGGCTGGGTTAGTGCTAG | -0.973
TCACTTCTTTTTTTTCTACTGTGCTAG | 2.15
AGCCATCTGCAGCAGGCCCCGTGCTAG | -0.886
GAGGGTTTCGACTTTCGGGACGTGCTA | 2.56
TTAGGTTTCCTTTCCCTGTAGTGCTAG | 10.2
TCATTTCTCTTTCACTGACTGTGCTAG | 3.87
TCATTTTTTTAATTGAAACTGTGCTAG | 1.3
TCAGTTACGGAATTTCCCACTGTGCTA | 1.58
GACGGTATTGACACTGGGGACGTGCTA | -0.317
CCACATCTCTGTCCGTGCTCGTGCTAG | 0.861
ATAGTGATAGCTCTGGTAAAGTGCTAG | -0.562
TTAGGCTTCGACTTTCGGTTAGTGCTA | 0.863
TTAGTTTTCATTATTGTGTCGTGCTAG | 3.27
TTAGATTTCAGATTCGATTAGTGCTAG | 3.65
TCACCTCAGGGTTTCAGACTGTGCTAG | 0.65
GACGAATTACCTCTGGAGCAGTGCTAG | 0.0933
TTAGGACTGCTACTACTTTAGTGCTAG | -0.313
GACGGTCTCTGTTTCGGGACGTGCTAG | 2.89

A few entries again (study 1):
Strand | E-score
AGGTCCCC | 0.104
TCAGTTAA | -0.148
AATAAGAG | -0.112
CCAGCAGC | -0.171
GCACCAGA | -0.142
TATCTTAA | -0.175
ACTTACAT | -0.178
CGATCGCA | 0.0483
AGCTGGGG | -0.0903
GTAGAAAA | -0.213
AGGTGAAC | -0.116
